Published values gathered from unrelated publications.
Values joined by “and” are separate records of one study, mostly repeats; a detail may differ. ± marks the error that the study gave.

Structure (SMILES)	cell line	test	test system	setting	how to read	measurement	value
CC1CCC2C(C)C(OC(=O)CCC(=O)N3CCC(Nc4ccc(S(=O)(=O)NC(=O)c5ccc(N6CCN(CC7=C(c8ccc(Cl)cc8)CC(C)(C)CC7)CC6)cc5Oc5cnc6[nH]ccc6c5)cc4[N+](=O)[O-])CC3)OC3OC4(C)CCC1C32OO4 (stereo not shown)	THP-1	annexin V/PI flow cytometry, item: annexin V+/PI+	–	1.6 µM, 24 h	–	late apoptotic cells	20.3%
CC(=O)NCSC[C@H](NC(=O)[C@@H]1CCCN1C(=O)[C@H](C)NC(=O)[C@@H](NC(=O)CNC(=O)[C@@H](NC(=O)[C@H](Cc1c[nH]c2ccccc12)NC(=O)[C@H](C)NC(=O)CNC(=O)[C@H](CO)NC(=O)[C@H](C)NC(=O)[C@@H]1CCCN1C(=O)[C@H](Cc1c[nH]c2ccccc12)NC(=O)[C@H](C)NC(=O)[C@H](C)NC(=O)[C@@H](N)Cc1ccc(O)cc1)[C@@H](C)O)[C@@H](C)O)C(=O)N[C@@H](CO)C(=O)N[C@@H](C)C(=O)NCC(=O)N[C@H](C(=O)NCCOCCOCCOCCOCCOCCOCCOCCOCCOCCOCCOCCOCCC(=O)N[C@@H](CS)C(N)=O)[C@@H](C)O	H157 lung squamous carcinoma	cell binding, phage binding, item: output/input phage	–	10 min, 37 °C	reference: control phage	selectivity ratio	3.7 ± 0.7
Cc1c(Cl)cccc1Nc1ccccc1C(=O)[Se]CC(=O)Nc1cccc(C(F)(F)F)c1	NCI60 renal subpanel	cytotoxicity, inhibitor	–	five-dose	–	CC50	6.44 µM
CC(C)[C@H](NC(=O)[C@H](CCCNC(=N)N)NC(=O)[C@@H]1CCCN1C(=O)[C@@H](NC(=O)[C@H](C)NC(=O)[C@H](Cc1ccc(O)cc1)NC(=O)[C@H](CCC(N)=O)NC(=O)[C@H](CCCCN)NC(=O)[C@H](CCCNC(=N)N)NC(=O)[C@@H]1CCCN1C(=O)[C@H](CCC(=O)O)NC(=O)[C@@H](NC(=O)[C@H](C)N)[C@@H](C)O)[C@@H](C)O)C(=O)N[C@@H](Cc1ccccc1)C(=O)N[C@@H](Cc1c[nH]c2ccccc12)C(=O)N[C@H](C(=O)N[C@@H](CC(=O)O)C(=O)N[C@@H](C)C(=O)N1CCC[C@H]1C(=O)NCC(=O)NCCOCCOCCOCCOCCOCCOCCOCCOCCOCCOCCOCCOCCC(=O)N[C@@H](CS)C(N)=O)[C@@H](C)O	MDA-MB-468 breast cancer	cell binding, phage binding, item: output/input phage	–	10 min, 37 °C	reference: control phage	selectivity ratio	0.59 ± 0.42
C=CCN1C(=O)C(CC=C)(C(=O)OCC)Oc2cc(F)ccc21 (stereo not shown)	HEK293T	cytotoxicity, CCK-8	–	50 µM, 72 h	–	inhibition	0.54 ± 0.23%
CC(C)C[C@H](NC(=O)[C@H](CC(=O)O)NC(=O)CNC(=O)[C@@H](N)CCCNC(=N)N)C(=O)N[C@@H](C)C(=O)N[C@H](C(=O)N[C@@H](CC(C)C)C(=O)N[C@@H](CCCNC(=N)N)C(=O)N[C@@H](CCC(N)=O)C(=O)N[C@@H](CC(C)C)C(=O)N[C@@H](C)C(=O)N[C@@H](CCC(N)=O)C(=O)N[C@@H](CCC(=O)O)C(=O)N[C@@H](CC(=O)O)C(=O)NCC(=O)N[C@H](C(=O)N[C@H](C(=O)NCC(=O)N[C@H](C(=O)N[C@@H](CCCNC(=N)N)C(=O)NCCOCCOCCOCCOCCOCCOCCOCCOCCOCCOCCOCCOCCC(=O)N[C@@H](CS)C(N)=O)C(C)C)C(C)C)C(C)C)[C@@H](C)O	T47D breast cancer	cell binding, phage binding, item: output/input phage	–	10 min, 37 °C	reference: control phage	selectivity ratio	0.57 ± 0.038
O=C(C[Se]C(=O)c1ccco1)Nc1cccc(C(F)(F)F)c1	NCI60 ovarian subpanel	cell growth	–	10 µM, 48 h, one-dose	–	mean growth percent	-14.6%
COc1ccc(NC(=O)c2ccc3[nH]c(-c4ccc(N(C)C)cc4)nc3c2)cn1	HCT116	IncuCyte	–	concentration not given, 40 (unit not given)	–	PI-positive cells	219 count and 202 count and 282 count
O=C(C[Se]C(=O)c1ccccc1Nc1ccccc1)Nc1cccc(C(F)(F)F)c1	NCI60 prostate subpanel (PC-3, DU-145)	cytotoxicity, inhibitor	–	five-dose	–	CC50	6.87 µM
COc1ccccc1-c1ccncc1C(=O)Nc1nnc(OCc2ccc(Cl)cc2)s1	HCT116 BRCA2-/-	–	–	0.125 µM, average of 3 runs	reference: untreated	colony survival	79.9%
[Cl-].[Cl-].[Ru+2].c1ccc(-c2ccccn2)nc1.c1ccc(-c2ccccn2)nc1.c1ccc2cc3nc4c5cccnc5c5ncccc5c4nc3cc2c1	SK-MEL-28	–	–	1% O2, added: blue light 453 nm, 100 J/cm2	reference: dark over light EC50	phototoxicity index	1
Cc1cc(Nc2nc(C[C@@]3(C(=O)O)CCN(Cc4cccc(Cl)c4F)[C@H](C)C3)cc(C)c2F)[nH]n1	HCC1806	cell growth or viability, ATP luminescence	–	5 days	–	IC50	0.0862 µM
NC(=S)N/N=C/c1ccc(OCc2cccc(F)c2)cc1	IMR-32	–	–	400 µg/mL, 24 h	higher = more activity	catalase activity (OD450)	0.246 a.u.
O=C1C(Cl)=C(Cl)C(=O)c2ccccc21	MOLT-3	XTT	–	–	reference: IC50 MRC-5 over IC50 MOLT-3	selectivity index	31.8
CSCC[C@H](NC(=O)[C@@H](NC(=O)[C@H](CCC(N)=O)NC(=O)[C@H](CO)NC(=O)[C@@H](N)C(C)C)[C@@H](C)O)C(=O)N[C@@H](CCCNC(=N)N)C(=O)N[C@@H](CCC(N)=O)C(=O)N[C@H](C(=O)N[C@@H](C)C(=O)N[C@H](C(=O)N1CCC[C@H]1C(=O)N[C@@H](CC(C)C)C(=O)N[C@@H](CC(C)C)C(=O)N[C@@H](Cc1c[nH]c2ccccc12)C(=O)N[C@@H](Cc1ccccc1)C(=O)N[C@@H](Cc1c[nH]c2ccccc12)C(=O)N[C@H](C(=O)NCC(=O)N[C@@H](CO)C(=O)N[C@@H](CC(C)C)C(=O)NCCOCCOCCOCCOCCOCCOCCOCCOCCOCCOCCOCCOCCC(=O)N[C@@H](CS)C(N)=O)[C@@H](C)O)C(C)C)[C@@H](C)O	H2347 lung adenocarcinoma	cell binding, phage binding, item: output/input phage	–	10 min, 37 °C	reference: control phage	selectivity ratio	0.79 ± 0.46
CC(C)CC(O)(CC(C)C)c1cn(C(=O)N2CCCC2)nn1	mouse T-cells	SILAC proteomics, item: Paip2b	–	1 nM, 6 h, single peptides, unit not given	reference: DMSO	protein level	0.97 and 0.87
O=C(C[Se]C(=O)c1cccs1)Nc1cccc(C(F)(F)F)c1	NCI60 prostate subpanel (PC-3, DU-145)	cytotoxicity, inhibitor	–	five-dose	–	CC50	6.81 µM
Cc1cc(Oc2nc(N3CC[C@@H](c4ccncc4)C3)ncc2F)[nH]n1	SK-LMS-1	cell proliferation	uterus cancer	–	–	IC50	83.2 µM
O=C(O)c1ccc(-c2nc(-c3ccccc3Cl)c3sccn23)cc1	human CD34+ stem cells	megakaryocyte differentiation, flow cytometry	–	10 µM, day 7, compound-negative subset, added: thrombopoietin	higher = more expression	CD41a fluorescence intensity	207000 a.u. and 187000 a.u. and 113000 a.u. and 121000 a.u. and 182000 a.u. and 122000 a.u. and 212000 a.u.
CC(C)Cc1ccc(C(C)C(=O)[Se]CC(=O)Nc2cccc(C(F)(F)F)c2)cc1 (stereo not shown)	NCI60 renal subpanel	cytotoxicity, inhibitor	–	five-dose	–	CC50	8.04 µM
Cc1cccc(-c2cccc(C)n2)n1.Cc1cccc(-c2cccc(C)n2)n1.F[P-](F)(F)(F)(F)F.F[P-](F)(F)(F)(F)F.[Ru+2].c1ccc2c(-c3nc4c5cccnc5c5ncccc5c4[nH]3)cccc2c1	SK-MEL-28	cell viability	–	1% O2, added: blue light 453 nm, 100 J/cm2	–	EC50	6.94 µM and 6.9 µM
O=C(C[Se]C(=O)c1cc2ccccc2s1)Nc1cccc(C(F)(F)F)c1	NCI60 prostate subpanel (PC-3, DU-145)	cytotoxicity, inhibitor	–	five-dose	–	CC50	6.17 µM
CC(C)(C)C(=O)OCOP(=O)(OCOC(=O)C(C)(C)C)C1CCCN(O)C1=O (stereo not shown)	OVCAR-8	–	–	–	–	log GI50	-6.52 log M
O=C(C[Se]C(=O)c1ccccc1)Nc1cccc(C(F)(F)F)c1	NCI60 renal subpanel	total growth inhibition, inhibitor	–	five-dose	–	mean TGI	5.05 µM
CCOC(=O)C1(Cc2ccccc2)Oc2cc(F)ccc2N(Cc2ccccc2)C1=O (stereo not shown)	HEK293T	cytotoxicity, CCK-8	–	50 µM, 72 h	–	inhibition	0.28 ± 0.13%

Repeated from above:
Structure (SMILES)	cell line	test	test system	setting	how to read	measurement	value
NC(=S)N/N=C/c1ccc(OCc2cccc(F)c2)cc1	IMR-32	–	–	400 µg/mL, 24 h	higher = more activity	catalase activity (OD450)	0.246 a.u.
O=C1C(Cl)=C(Cl)C(=O)c2ccccc21	MOLT-3	XTT	–	–	reference: IC50 MRC-5 over IC50 MOLT-3	selectivity index	31.8
